Experimental data gathered from unrelated publications.
Each numbered part is a random draw from the data of one study; scales do not carry over between parts.
Sequence of UniProt Q16566 (whole entry, looked up): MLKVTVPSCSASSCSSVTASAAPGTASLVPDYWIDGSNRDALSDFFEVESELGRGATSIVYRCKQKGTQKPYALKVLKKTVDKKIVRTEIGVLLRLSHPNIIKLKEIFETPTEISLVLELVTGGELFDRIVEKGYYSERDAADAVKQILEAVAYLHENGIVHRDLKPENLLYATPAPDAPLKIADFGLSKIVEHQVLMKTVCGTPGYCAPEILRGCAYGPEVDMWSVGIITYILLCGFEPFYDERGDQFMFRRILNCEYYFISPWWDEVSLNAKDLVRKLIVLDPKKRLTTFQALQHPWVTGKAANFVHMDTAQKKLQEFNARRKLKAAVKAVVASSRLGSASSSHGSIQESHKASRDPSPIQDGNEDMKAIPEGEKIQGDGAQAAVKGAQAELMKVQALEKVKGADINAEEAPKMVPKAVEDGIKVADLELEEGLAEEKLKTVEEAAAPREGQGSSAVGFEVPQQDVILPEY
Sequence of UniProt Q9HAZ1 (whole entry, looked up): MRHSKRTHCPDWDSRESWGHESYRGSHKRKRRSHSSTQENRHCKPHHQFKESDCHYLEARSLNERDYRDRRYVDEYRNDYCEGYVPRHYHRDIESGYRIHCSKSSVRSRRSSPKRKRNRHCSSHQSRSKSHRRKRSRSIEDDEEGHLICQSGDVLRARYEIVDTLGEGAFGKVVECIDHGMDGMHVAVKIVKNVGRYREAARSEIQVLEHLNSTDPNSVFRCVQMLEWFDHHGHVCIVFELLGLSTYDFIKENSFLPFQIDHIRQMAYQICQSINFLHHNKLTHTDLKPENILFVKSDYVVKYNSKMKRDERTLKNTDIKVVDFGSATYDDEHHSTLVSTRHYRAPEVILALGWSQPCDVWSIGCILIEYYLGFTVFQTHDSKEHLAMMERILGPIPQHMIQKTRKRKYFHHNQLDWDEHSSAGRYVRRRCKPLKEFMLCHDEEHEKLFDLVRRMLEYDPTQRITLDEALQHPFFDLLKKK
Sequence of UniProt Q9UQ88 (whole entry, looked up): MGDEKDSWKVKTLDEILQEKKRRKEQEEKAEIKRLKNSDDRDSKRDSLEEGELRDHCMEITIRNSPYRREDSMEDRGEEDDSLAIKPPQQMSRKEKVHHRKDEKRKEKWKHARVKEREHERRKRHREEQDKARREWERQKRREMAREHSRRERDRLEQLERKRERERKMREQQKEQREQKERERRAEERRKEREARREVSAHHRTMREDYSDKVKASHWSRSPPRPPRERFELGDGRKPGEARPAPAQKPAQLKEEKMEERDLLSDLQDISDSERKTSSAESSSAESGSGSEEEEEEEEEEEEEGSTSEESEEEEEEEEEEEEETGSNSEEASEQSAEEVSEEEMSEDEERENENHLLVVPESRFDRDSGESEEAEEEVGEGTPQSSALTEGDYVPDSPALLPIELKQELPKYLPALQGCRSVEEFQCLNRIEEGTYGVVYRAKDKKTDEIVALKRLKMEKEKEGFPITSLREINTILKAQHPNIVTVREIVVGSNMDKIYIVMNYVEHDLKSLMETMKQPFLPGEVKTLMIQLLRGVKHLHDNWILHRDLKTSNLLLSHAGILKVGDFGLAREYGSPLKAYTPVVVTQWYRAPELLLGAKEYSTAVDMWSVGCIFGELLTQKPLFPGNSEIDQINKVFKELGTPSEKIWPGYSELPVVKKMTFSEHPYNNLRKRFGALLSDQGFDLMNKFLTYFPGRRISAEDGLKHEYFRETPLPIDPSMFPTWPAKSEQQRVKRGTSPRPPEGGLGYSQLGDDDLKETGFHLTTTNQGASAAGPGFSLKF
Sequence of UniProt P29376 (whole entry, looked up): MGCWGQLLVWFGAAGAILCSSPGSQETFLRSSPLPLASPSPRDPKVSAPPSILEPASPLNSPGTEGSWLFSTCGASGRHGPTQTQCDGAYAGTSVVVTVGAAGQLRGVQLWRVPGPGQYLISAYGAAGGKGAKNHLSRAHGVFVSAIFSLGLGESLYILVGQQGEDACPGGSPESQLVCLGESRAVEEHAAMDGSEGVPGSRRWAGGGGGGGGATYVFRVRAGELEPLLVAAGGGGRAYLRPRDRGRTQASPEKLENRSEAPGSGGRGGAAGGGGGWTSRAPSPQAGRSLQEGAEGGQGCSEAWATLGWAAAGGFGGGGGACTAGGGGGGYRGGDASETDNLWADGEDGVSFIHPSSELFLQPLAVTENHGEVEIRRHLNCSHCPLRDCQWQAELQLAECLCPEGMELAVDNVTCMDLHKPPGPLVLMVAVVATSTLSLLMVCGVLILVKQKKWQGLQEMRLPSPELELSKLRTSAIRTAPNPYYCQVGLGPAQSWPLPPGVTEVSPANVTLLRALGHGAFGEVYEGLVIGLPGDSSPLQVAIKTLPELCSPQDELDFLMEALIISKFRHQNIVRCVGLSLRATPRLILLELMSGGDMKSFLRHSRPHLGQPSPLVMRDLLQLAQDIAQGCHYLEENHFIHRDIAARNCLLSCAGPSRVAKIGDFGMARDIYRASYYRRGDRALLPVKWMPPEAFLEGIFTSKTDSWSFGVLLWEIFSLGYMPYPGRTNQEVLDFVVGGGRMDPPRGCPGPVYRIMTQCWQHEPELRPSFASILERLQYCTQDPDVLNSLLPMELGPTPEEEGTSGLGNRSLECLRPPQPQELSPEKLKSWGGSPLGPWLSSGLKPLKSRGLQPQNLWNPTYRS
Sequence of UniProt P51451 (whole entry, looked up): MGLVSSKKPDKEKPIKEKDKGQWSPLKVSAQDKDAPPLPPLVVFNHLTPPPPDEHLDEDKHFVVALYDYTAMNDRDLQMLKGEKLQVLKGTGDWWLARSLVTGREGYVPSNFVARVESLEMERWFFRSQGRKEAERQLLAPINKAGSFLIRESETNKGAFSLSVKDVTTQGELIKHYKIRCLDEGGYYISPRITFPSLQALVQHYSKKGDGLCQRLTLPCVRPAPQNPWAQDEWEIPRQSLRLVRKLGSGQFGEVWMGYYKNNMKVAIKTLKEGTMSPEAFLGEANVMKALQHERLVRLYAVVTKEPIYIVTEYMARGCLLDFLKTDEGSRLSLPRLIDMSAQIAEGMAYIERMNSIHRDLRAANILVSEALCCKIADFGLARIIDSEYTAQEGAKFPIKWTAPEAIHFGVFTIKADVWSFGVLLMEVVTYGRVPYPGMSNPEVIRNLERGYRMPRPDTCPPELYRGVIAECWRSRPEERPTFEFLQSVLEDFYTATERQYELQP
Sequence of UniProt P51956 (whole entry, looked up): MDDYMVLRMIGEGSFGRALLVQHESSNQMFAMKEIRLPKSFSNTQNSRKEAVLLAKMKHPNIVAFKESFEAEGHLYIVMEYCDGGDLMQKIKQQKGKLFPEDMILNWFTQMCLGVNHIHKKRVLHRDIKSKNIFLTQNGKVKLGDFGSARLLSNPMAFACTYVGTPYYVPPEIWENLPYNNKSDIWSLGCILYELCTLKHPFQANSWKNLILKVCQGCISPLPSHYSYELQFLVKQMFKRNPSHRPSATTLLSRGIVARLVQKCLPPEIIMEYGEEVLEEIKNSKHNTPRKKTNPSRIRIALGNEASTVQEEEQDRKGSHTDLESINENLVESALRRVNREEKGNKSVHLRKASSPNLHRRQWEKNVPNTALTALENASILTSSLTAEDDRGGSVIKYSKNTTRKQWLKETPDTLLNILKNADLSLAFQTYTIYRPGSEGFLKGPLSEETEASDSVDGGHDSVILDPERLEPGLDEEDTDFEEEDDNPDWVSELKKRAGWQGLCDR

Sample 1 — Structure (SMILES): COc1cc2ncnc(Nc3cccc(Cl)c3)c2cc1OC; effect on: enzyme activity; mode: inhibitor; tested at: 0.5 µM; relative to: control; quantity: remaining activity
CAMK4 (Homo sapiens, UniProt Q16566): 94.4%
CLK3 (Homo sapiens, UniProt P49761): 90.5%
CLK4 (Homo sapiens, UniProt Q9HAZ1): 98.2%
AKT2 (Homo sapiens, UniProt P31751): 84.1%
PNCK (Homo sapiens, UniProt Q6P2M8): 89.6%
NEK3 (Homo sapiens, UniProt P51956): 84.3%
ROCK1 (Homo sapiens, UniProt Q13464): 95.9%
DCLK2 (Homo sapiens, UniProt Q8N568): 94.7%

Sample 2 — technique: aptamer microarray, sandwich; form: DNA with 2'F-ANA; medium: in vitro; tested at: 200 nM; together with: Cy3 exosite-II aptamer, 400 nM; reading: higher = stronger binding; quantity: mean fluorescence intensity; sequence: GGTTGGTGTGGTTGG
Target: Prothrombin, mature alpha-thrombin (F2, Homo sapiens, UniProt P00734)
Notes: whole 15-mer aptamer, many near background
2'F-ANA at 1 6 7 13: 131 a.u.
2'F-ANA at 1 3 4 6 8 9 11 12 13 15: 235 a.u.
2'F-ANA at 4 5 7 8 9 11 13: 51.4 a.u.
2'F-ANA at 2 3 5 8 9 11 13 15: 78.5 a.u.
2'F-ANA at 1 2 4 5 10 12 13 15: 46 a.u.
2'F-ANA at 2 3 12 15: 1150 a.u.
2'F-ANA at 2 4 5 8 9 11 13 15: 54.3 a.u.
2'F-ANA at 1 2 3 4 5 6 8 10 13: 52.5 a.u.

Sample 3 — technique: competition with immobilised ligand; tested at: 1 µM; quantity: remaining binding
Structure (SMILES): O=C(Nc1ccc(Oc2ccc(F)cc2)cc1)N1CCc2ncccc2[C@H]1c1ccc(F)cc1
NEK4 (Homo sapiens, UniProt P51957); cell-free assay: 94%
PIK3C3 (Homo sapiens, UniProt Q8NEB9); cell-free assay: 92%
CAMK4 (Homo sapiens, UniProt Q16566); cell-free assay: 86%
FLT3 (Homo sapiens, UniProt P36888); cell-free assay: 77%
PIP4K2B (Homo sapiens, UniProt P78356); cell-free assay: 97%
FLT3 (Homo sapiens, UniProt P36888, ITD); cell-free assay: 99%
FLT1 (Homo sapiens, UniProt P17948); cell-free assay: 100%
MAPKAPK2 (Homo sapiens, UniProt P49137); cell-free assay: 98%
KDR (Homo sapiens, UniProt P35968); cell-free assay: 100%
NEK7 (Homo sapiens, UniProt Q8TDX7); cell-free assay: 82%
LTK (Homo sapiens, UniProt P29376); cell-free assay: 86%
CDK2 (Homo sapiens, UniProt P24941); cell-free assay: 90%
BLK (Homo sapiens, UniProt P51451); cell-free assay: 90%
CDK11A (Homo sapiens, UniProt Q9UQ88); binding: 92%

Sample 4 — technique: protein-binding microarray; form: double-stranded DNA, one strand shown; medium: in vitro; tested at: 0.8 µM; notes: whole 60-bp probe, no competitor; reading: higher = stronger binding; quantity: fluorescence intensity; shared flanks, not repeated: … GTCTTGATTCGCTTGACGCTGCTG
Target: Centromere-binding protein 1, full length, N-terminal tag (CBF1, Saccharomyces cerevisiae, UniProt P17106, residues 1-351)
Sequence of UniProt P17106 (whole entry, looked up): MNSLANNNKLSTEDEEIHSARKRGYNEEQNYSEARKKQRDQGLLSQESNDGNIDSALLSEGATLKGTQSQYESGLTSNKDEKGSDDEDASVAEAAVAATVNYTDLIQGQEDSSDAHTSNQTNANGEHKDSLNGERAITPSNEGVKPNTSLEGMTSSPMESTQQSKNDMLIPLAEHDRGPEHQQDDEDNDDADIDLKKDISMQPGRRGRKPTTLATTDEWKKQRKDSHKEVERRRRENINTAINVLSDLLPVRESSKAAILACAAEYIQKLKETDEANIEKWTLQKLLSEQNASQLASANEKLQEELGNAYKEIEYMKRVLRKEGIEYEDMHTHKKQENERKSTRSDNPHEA
GAAAAACGTAGAAACGACATCAGTCGCTTTCGCTAG: 478 a.u.
CTATATGTATGTATGCACATGCAATTCCTACATTTC: 617 a.u.
GAATATTTCTCATTTCACGTTATTTTCTCCAAATAG: 640 a.u.
CTATATTTACGTGTGTACGTGCATGCACGCAAGTTC: 653 a.u.
CTATGTGAACAACGTGAGGTAATTCCATGGAAATTC: 683 a.u.
TGTACGAAGCTATTGCACGTGTCTATAGTAGTTAGG: 5740 a.u.
GAAGACGTTTATGTGCACGTTTACGTTTGTTTTTAG: 646 a.u.
CTATACGTCAGATCACTGATGATGAACTCACCTTTC: 518 a.u.

A few entries again (sample 4):
CTATGTGAACAACGTGAGGTAATTCCATGGAAATTC: 683 a.u.
CTATACGTCAGATCACTGATGATGAACTCACCTTTC: 518 a.u.
CTATATGTATGTATGCACATGCAATTCCTACATTTC: 617 a.u.
